Experimental data of several laboratories.
Each line is one published result; not all experiments were run side by side. ± gives the spread as reported.

SMILES | assay | system | setting | tissue uptake
CC[C@H](C)[C@H](NC(=O)[C@H](CCCNC(=N)N)NC(=O)[C@H](CCCCN)NC(=O)[C@H](Cc1ccc(O)cc1)NC(=O)[C@H](CC(=O)O)NC(=O)[C@H](C)NC(=O)CNC(=O)CCOCCOCCOCCNC(=O)CN1CCN(CC(=O)O)CCN(CC(=O)O)CCN(CC(=O)O)CC1)C(=O)N[C@H](C(=O)N[C@H](C(=O)N[C@@H](CCCCN)C(=O)N[C@H](C(=O)N[C@@H](CC(N)=O)C(N)=O)C(C)C)C(C)C)[C@@H](C)O [copper-64 labelled] |  | C57BL/6J mouse male, B16-F10 tumour, small intestine | intravenous, 1.85 MBq, 40 min, 67Ga complex | 2.74 ± 0.067 %ID/g
[2H]C([2H])([18F])[C@]([2H])(N)C(=O)O |  | athymic nude mouse, non-bone tissues | 110 min | ≤ 1 %ID/g
CC[C@H](C)[C@H](NC(=O)[C@@H](Cc1c[nH]c2ccccc12)NC(=O)[C@@H]1CCCN1C(=O)[C@H](CCCCN)NC(=O)[C@H](CCCCN)NC(=O)CCNC(=O)CCNC(=O)CN1CCN(CC(=O)O)CCN(CC(=O)O)CCN(CC(=O)O)CC1)C(=O)N[C@@H](C[Si](C)(C)C)C(=O)O [gallium-68 labelled] |  | nude mouse HT-29 xenograft, liver | 90 min | 0.22 ± 0.17 %ID/g
CC[C@H](C)[C@H](NC(=O)[C@H](CCCNC(=N)N)NC(=O)[C@H](CCCCN)NC(=O)[C@H](Cc1ccc(O)cc1)NC(=O)[C@H](CC(=O)O)NC(=O)[C@H](C)NC(=O)CNC(=O)CCOCCOCCOCCNC(=O)CN1CCN(CC(=O)O)CCN(CC(=O)O)CCN(CC(=O)O)CC1)C(=O)N[C@H](C(=O)N[C@@H](CC(C)C)C(=O)N[C@@H](CCCCN)C(=O)N[C@H](C(=O)N[C@@H](CC(N)=O)C(N)=O)C(C)C)[C@@H](C)O [copper-64 labelled] | ex vivo gamma counting | male C57BL/6J mouse, B16-F10 tumour, B16-F10 tumour | intravenous, 1.85 MBq, 20 min | 4.47 ± 1.56 %ID/g
CC[C@H](C)[C@H](NC(=O)[C@H](CCCCN)NC(=O)CNC(=O)[C@H](CC(C)C)NC(=O)[C@H](Cc1ccccc1)NC(=O)[C@H](CCCCN)NC(=O)[C@H](CO)NC(=O)[C@H](Cc1ccccc1)NC(=O)[C@H](Cc1c[nH]c2ccccc12)NC(=O)[C@H](CCC(N)=O)NC(=O)[C@@H](NC(=O)[C@H](Cc1ccccc1)NC(=O)CCCCCNC(=O)CN1CCN(CC(=O)O)CCN(CC(=O)O)CCN(CC(=O)O)CC1)C(C)C)C(=O)N[C@@H](CCC(=O)O)C(=O)N1CCC[C@H]1C(=O)N[C@@H](CC(=O)O)C(=O)N[C@H](C(=O)N[C@@H](CO)C(=O)N[C@@H](CCC(N)=O)C(=O)N[C@H](C(=O)N[C@@H](CCC(N)=O)C(=O)N[C@@H](CC(=O)O)C(=O)N1CCC[C@H]1C(=O)N[C@@H](CC(N)=O)C(=O)N[C@@H](CC(=O)O)C(=O)N[C@@H](CCC(N)=O)C(=O)N[C@@H](Cc1ccc(O)cc1)C(=O)N[C@@H](CCC(=O)O)C(=O)N1CCC[C@H]1C(=O)N[C@@H](Cc1ccccc1)C(=O)O)C(C)C)C(C)C [copper-64 labelled] |  | C57BL/6 male mouse, tumour-naive, thymus | 2 h | 2.2 ± 0.1 %ID/g
CSCC[C@H](NC(=O)CNC(=O)[C@H](CCCCN)NC(=O)[C@H](CC(C)C)NC(=O)[C@@H]1CCCN1C(=O)[C@H](CO)NC(=O)[C@H](Cc1c[nH]cn1)NC(=O)[C@H](Cc1c[nH]c2ccccc12)NC(=O)[C@H](CCCNC(=N)N)NC(=O)[C@H](CC(C)C)NC(=O)[C@H](CCCNC(=N)N)NC(=O)[C@H](Cc1c[nH]c2ccccc12)NC(=O)[C@H](CS)NC(=O)CCCCCNC(=O)CN1CCN(CC(=O)O)CCN(CC(=O)O)CCN(CC(=O)O)CC1)C(=O)O [copper-64 labelled] |  | BALB/c nude mouse, Huh-7 tumour, small intestine | intravenous, 18 h, ex vivo biodistribution | 3.52 %ID/g
CN1Cc2cc(Cl)ccc2-n2c(nnc2C2CCN(c3cccc([18F])n3)CC2)C1 |  | C57BL/6 mouse male, heart | intravenous, 3.7 MBq, 60 min | 3.25 ± 0.43 %ID/g
O=C([O-])CN1CCCN2CCN(CCCN(CC(=O)NC(Cc3ccccc3)C(=O)NC(Cc3ccccc3)C(=O)NCCCC[C@H](NC(=O)CCCCCCC(=O)NCCCC[C@H](NC(=O)N[C@@H](CCC(=O)O)C(=O)O)C(=O)O)C(=O)O)CC2)CC1.[64Cu+2] (single isomer, unassigned) |  | mouse PC-3 PIP tumour, PSMA+ tumour | 2 h | 20.5 ± 2.9 %ID/g

A few entries again:
SMILES | assay | system | setting | tissue uptake
CC[C@H](C)[C@H](NC(=O)[C@H](CCCNC(=N)N)NC(=O)[C@H](CCCCN)NC(=O)[C@H](Cc1ccc(O)cc1)NC(=O)[C@H](CC(=O)O)NC(=O)[C@H](C)NC(=O)CNC(=O)CCOCCOCCOCCNC(=O)CN1CCN(CC(=O)O)CCN(CC(=O)O)CCN(CC(=O)O)CC1)C(=O)N[C@H](C(=O)N[C@@H](CC(C)C)C(=O)N[C@@H](CCCCN)C(=O)N[C@H](C(=O)N[C@@H](CC(N)=O)C(N)=O)C(C)C)[C@@H](C)O [copper-64 labelled] | ex vivo gamma counting | male C57BL/6J mouse, B16-F10 tumour, B16-F10 tumour | intravenous, 1.85 MBq, 20 min | 4.47 ± 1.56 %ID/g
